Experimental data pooled from the literature.
Numbers after ± are the reported error.

| Compound | assay | test system | setting | how to read | endpoint | result |
| --- | --- | --- | --- | --- | --- | --- |
| CNc1oc(-c2cccc3ccccc23)nc1C#N | insulin tolerance test | C57BL/6J mice, low-dose STZ diabetes | dose not given, day 18 | – | insulin sensitivity | no effect |
| CC(C)OC(=O)[C@H](CO)NCc1cc(Cl)c(OCc2cccc(-c3ccccc3)c2Br)cc1OCc1cccnc1 | – | hPD-L1 MC-38 tumour, humanised hPD-1 C57BL/6 mouse | oral, 5 mg/kg × 21 | – | tumour weight inhibition | 60.9% |
| O=C(Nc1ccc(C(F)(F)F)cc1Cl)c1cc(Cl)ccc1O | – | mice relapsed VCaP xenograft, serum | dose not given | – | PSA level | decreased |
| CCCCCCCOC(=O)Cc1c(C)n(C(=O)c2ccc(Cl)cc2)c2ccc(OC)cc12 | hot plate test | BALB/c mice | 100 mg/kg, 120 min | – | latency of nociceptive response | 16.7 ± 1.2 s |
| C=C(c1cc(F)c(C(=O)O)c(F)c1)c1cc2c(cc1C)C(C)(C)CCC2(C)C | RNA sequencing, item: Rbp1 | rat, brain | dose not given, 24 h | reference: vehicle | log2 fold change | 0.62 |
| O=C(O)C1OC(Oc2cccc(-c3nc(N4CCOCC4)c4oc5ncccc5c4n3)c2)C(O)C(O)C1O (centres unmarked) | glucuronide formation | mouse liver microsomes | – | – | Vmax | 274 ± 8.32 pmol/min/mg |
| CC[C@H](C)[C@H](NC(=O)[C@H](CCC(=O)O)NC(=O)[C@H](C)NC(=O)[C@@H](NC(=O)[C@H](Cc1c[nH]cn1)NC(=O)[C@@H](NC(=O)[C@H](CCC(=O)O)NC(=O)[C@H](C)NC(=O)[C@@H](NC(=O)[C@H](CC(C)C)NC(=O)[C@H](CCCCN)NC(=O)[C@H](Cc1c[nH]cn1)NC(=O)[C@H](CC(C)C)NC(=O)[C@H](Cc1ccccc1)NC(=O)[C@H](C)NC(=O)[C@H](CCCNC(=N)N)NC(=O)[C@H](CCCNC(=N)N)NC(=O)[C@H](CCCNC(=N)N)NC(=O)[C@H](C)NC(=O)[C@H](CC(=O)O)NC(=O)[C@H](CCC(N)=O)NC(=O)[C@@H](NC(=O)[C@H](Cc1c[nH]c2ccccc12)NC(=O)[C@H](CCCCN)NC(=O)[C@H](C)NC(=O)[C@H](CCCNC(=N)N)NC(=O)[C@H](CCC(N)=O)NC(=O)[C@H](Cc1c[nH]cn1)NC(=O)[C@H](CCSC)NC(=O)[C@H](CC(C)C)NC(=O)[C@H](CCC(N)=O)NC(=O)[C@@H](NC(=O)[C@H](CCC(=O)O)NC(=O)[C@H](C)NC(=O)[C@@H](NC(=O)[C@H](C)N)C(C)C)[C@@H](C)CC)[C@@H](C)CC)[C@@H](C)CC)[C@@H](C)CC)[C@@H](C)O)C(=O)O | – | cynomolgus monkey, serum | subcutaneous, 0.5 and 1.0 nmol/kg | – | duration of raised serum calcium | ≤ 72 h |
| COc1c2c(cc3oc(CO)cc(=O)c13)O[C@H](C(C)(C)O)C2 | analgesia | mouse | oral, 1 mg/kg, 2 h | – | hot plate latency | 12.7 ± 1.44 s |
| Cc1cc2c(cc1C1(c3ncc(C(=O)O)cn3)CC1)C(C)(C)CCC2(C)C | RNA sequencing, item: Abca1 mRNA | rat, brain | dose not given, 24 h, single dose | reference: vehicle | log2 fold change | -1.04 |
| C[C@H](NC(=O)COC(=O)[C@H](C)NC(=O)CO)C(=O)O | – | water | pH 4, 65 °C | – | depolymerization rate constant | 0.123 h⁻¹ |
| COc1cc2c(cc1OC)-c1cc3ccc(OC)c(OC)c3c[n+]1CC2 | – | rat, STZ-induced diabetic, serum | oral, 12 mg/kg, day 28 | – | LDL cholesterol | 58.8 ± 2.41 mg/dL |
| C[C@@H](O)[C@@H]1NC(=O)[C@H](CCCCN)NC(=O)[C@@H](Cc2ccc(NC(N)=O)cc2)NC(=O)[C@H](Cc2ccc(NC(=O)[C@@H]3CC(=O)NC(=O)N3)cc2)NC(=O)[C@H](NC(=O)[C@H](Cc2ccc(Cl)cc2)NC(=O)CN2CCN(CC(=O)O)CCN(CC(=O)O)CCN(CC(=O)O)CC2)CSSC[C@@H](C(=O)N[C@H](Cc2ccc(O)cc2)C(N)=O)NC1=O [gallium-68 labelled] | PET/CT | human neuroendocrine tumour patients, bone lesions | 60 min | – | SUVmean | 4 ± 2 |
| CC1(C)C(=CC=C2CCCC(C=CC3=[N+](CCCCS(=O)(=O)[O-])c4ccc(S(=O)(=O)O)cc4C3(C)C)=C2Oc2ccc(S(=O)(=O)O)cc2)N(CCCCCC(=O)NCCCC[C@H](NC(=O)[C@@H](CCC(=O)O)NC(=O)[C@@H](CCC(=O)O)NC(=O)[C@@H](CCC(=O)O)NC(=O)CCCCCNC(=O)C2CCC(CNC(=O)CC[C@H](NC(=O)N[C@@H](CCC(=O)O)C(=O)O)C(=O)O)CC2)C(N)=O)c2ccc(S(=O)(=O)O)cc21 (some centres unmarked) | fluorescence molecular tomography | mouse, PC3pip tumour xenograft, PC3pip tumour | iv, 1 nmol, 4 h | – | probe amount in tumour | 71.2 ± 14.4 pmol |
| COc1cc(C(=O)OCCCN2CCCN(CCCOC(=O)c3cc(OC)c(OC)c(OCc4ccc([N+](=O)[O-])cc4)c3)CC2)cc(OC)c1OC | von Frey test | mouse, STZ diabetic neuropathy | iv, 30 mg/kg, after third injection | – | duration of PWT increase | 24 h |
| CC(C)=CCCC(C)=CCc1cc(-c2coc3cc(OC4OC(C(=O)O)C(O)C(O)C4O)ccc3c2=O)ccc1O (centres unmarked) | glucuronidation, substrate | mouse liver microsomes | – | – | Vmax | 6120 ± 531 pmol/min/mg |
| CN(C)C(=O)c1cncc(N2Cc3cn(Cc4ccc(F)cc4)nc3C2)n1 | EAE clinical score | mouse EAE model | ip, 10 mg/kg daily from day 11, 264 h, unit not given | reference: vehicle | effect size d | -3.45 |
| COC1C=CC=C(C)C(=O)NC2=CC(=O)C(NCCN(C)C)=C(CC(C)CC(OC)C(O)C(C)C=C(C)C1OC(N)=O)C2=O (centres unmarked) | GSEA, item: MYC, E2F, NOTCH | mouse, Rh30 xenograft | dose not given | – | pathway activity | inhibited |
| CCn1nc(Cl)c2c1-c1cnc(N)c(c1)O[C@H](C)c1cc(F)ccc1-c1nn(C)cc1C2 | – | human | oral, 50 mg once daily, week 6 | – | change in target lesion size | -31% |
| CC(=O)N[C@@H](CC1CCCCC1)C(=O)N[C@H]1CSSC[C@@H](C(=O)N[C@@H](CCCNC(=N)N)C(N)=O)NC(=O)[C@H](CC2CCCCC2)NC(=O)[C@H](CCCNC(=N)N)NC(=O)[C@H](CCCNC(=N)N)NC(=O)[C@H](CC2CCCCC2)NC(=O)[C@H](CC(C)C)NC(=O)[C@H](CCCNC(=N)N)NC(=O)[C@@H](NC(=O)[C@H](CC2CCCCC2)NC(C)=O)CSSC[C@@H](C(=O)N[C@@H](CCCNC(=N)N)C(N)=O)NC(=O)[C@H](CC2CCCCC2)NC(=O)[C@H](CCCNC(=N)N)NC(=O)[C@H](CCCNC(=N)N)NC(=O)[C@H](CC2CCCCC2)NC(=O)[C@H](CC(C)C)NC(=O)[C@H](CCCNC(=N)N)NC1=O | – | mouse bilateral renal ischemia-reperfusion | iv, 1 to 5 mg/kg, 24 h after injury, dosed 1 h before injury | reference: vehicle | serum BUN and creatinine | decreased |

| Compound | assay | test system | setting | how to read | endpoint | result |
| --- | --- | --- | --- | --- | --- | --- |
| CN(C)c1ccc2c(-c3cc(C(=O)N4CCN(CCCOc5ccc6nccc(C(=O)NCC(=O)N7CC(F)(F)C[C@H]7C#N)c6c5)CC4)ccc3C(=O)[O-])c3ccc(=[N+](C)C)cc-3oc2c1 | flow cytometry | mouse B16-F10 tumour, tumour | intravenous, dose not given, 1 h | – | probe signal in immune cells | 20% |
| CCCOC(=O)Cc1c(C)n(C(=O)c2ccc(Cl)cc2)c2ccc(OC)cc12 | hot plate test | BALB/c mice | 50 mg/kg, 0 min | – | latency of nociceptive response | 10.5 ± 0.28 s |
| CC(=O)C1=C(C)NC(=O)NC1c1ccc(F)cc1 (centres unmarked) | DPPH radical scavenging | – | – | reference: gallic acid | antioxidant potency ratio | ~2 fold |
| CCCCCCCCCC(=O)N[C@@H](Cc1c[nH]c2ccccc12)C(=O)N[C@H](CC(N)=O)C(=O)N[C@@H](CC(=O)O)C(=O)N[C@@H]1C(=O)NCC(=O)N[C@@H](CCCN)C(=O)N[C@@H](CC(=O)O)C(=O)N[C@H](C)C(=O)N[C@@H](CC(=O)O)C(=O)NCC(=O)N[C@H](CO)C(=O)N[C@@H]([C@H](C)CC(=O)O)C(=O)N[C@@H](CC(=O)c2ccccc2N)C(=O)O[C@@H]1C | – | mammalian-mimic liposomes | 50 µg/mL, 100 min | – | calcein leakage | 5.2% |
| C=C(c1ncc(C(=O)O)cn1)c1cc2c(cc1C)C(C)(C)CCC2(C)C | RNA sequencing, item: Scd1 | rat, brain | dose not given, 24 h | reference: vehicle | log2 fold change | -1.35 |
| Cc1ccc(C(C)C)cc1NC(=O)COC(=O)/C=C/c1ccc(O)cc1O | – | Danio rerio embryos | 50 µM, 9 to 72 hpf | – | pigmentation level | ~57.3% |
| COc1ccc(C2CC(c3ccc(C)cc3)=Nc3ccccc3S2)cc1OC (centres unmarked) | – | Wistar rat, STZ-induced diabetes, serum | 20 mg/kg, 28 days | – | LDL cholesterol | 104 mg/dL |
| CC(=O)[O-].O.O.O.O.[Co+2].[O-]c1ccc(Br)cc1C=NCCN1CCOCC1 | superoxide scavenging | – | 240 µM | – | inhibition | 65.3% |
| CC(C)(C)OC(=O)N1CCC[C@H](O)[C@H]1CC(=O)Cn1cnc2cc(Br)c(Cl)cc2c1=O (relative stereo) | luciferase translation | rabbit reticulocyte lysate | concentration not given | – | translation | inactive |
| Cc1cc(O)c(C=O)c2c1C(=O)Oc1c(CO)c(O)c3c(c1O2)C(O)OC3=O (centres unmarked) | – | rat, male, streptozotocin-induced diabetes | 5 mg/kg, 0 weeks | – | fasting plasma glucose | 332 ± 5.43 mg/dL |
| COc1ccc(OC)c(C(=Cc2ccc(O)c(OC)c2)C(=O)NCCc2ccc(O)cc2)c1 | item: DA, DOPAC, HVA | C57BL mice, MPTP/p Parkinson model, striatum | 75 mg/kg, 8 weeks | reference: MPTP/p vehicle | dopamine and metabolite level | increased |
| CC12CC(O)C3CC1(OC1OC(CO)C(O)C(O)C1O)C3(COC(=O)c1ccccc1)C(=O)O2 (centres unmarked) | – | pseudo-germ-free mice, reserpine model | 14 mg/kg, 7 days | – | body temperature | 34.5 ± 0.58 °C |
| CC1(C)C(=CC=CC=CC=CC2=[N+](CCCCCC(=O)NCCCC[C@@H]3NC(=O)[C@@H](Cc4ccccc4)NC(=O)[C@H](CC(=O)O)NC(=O)CNC(=O)[C@H](CCCNC(=N)N)NC3=O)c3ccc4ccccc4c3C2(C)C)N(CCCCS(=O)(=O)[O-])c2ccc3ccccc3c21 | – | BALB/c nude mice, orthotopic U87MG-luc glioma | dose not given, 72 h, brain | – | ex vivo tumour fluorescence | not detected |
| CC(=O)N[C@@H](CC(N)=O)C(=O)NCC(=O)N[C@@H](C)C(=O)N[C@@H](C)C(N)=O | 1H NMR | sodium phosphate buffer 50 mM | pH 5.1, 55 °C | – | rate constant succinimide to α-Asp | 0.068 h⁻¹ |
| COC1CCC(N(C(=O)C2CCC(C)CC2)c2cc(C3=CCCCC3)sc2C(=O)O)CC1 (centres unmarked) | – | Arabidopsis thaliana spy-4 seedlings | 30 µM, sugar-containing medium, darkness | – | hypocotyl length | no effect |
| Cc1cnc(Nc2cc(C)c(C)c(C)c2)nc1Nc1ccc2oc(=O)[nH]c2c1 | – | rat, OVA asthma model, lung tissue | dose not given, 2 h after OVA challenge | – | NF-κB p65 level | no effect |
| CC[C@H]1[C@@H](O)[C@@H]2[C@H](CC[C@]3(C)[C@@H]([C@H](C)CCOS(=O)(=O)[O-])CC[C@@H]23)[C@@]2(C)CC[C@@H](O)C[C@@H]12.[Na+] | – | ob/ob NASH mice, liver | oral, 10 mg/kg once daily, 8 wk | – | liver triglycerides | 149 ± 14 mg/g tissue |
| CCCCCCCCCCCCCCCC(=O)NCCCC[C@H](N)C(=O)N[C@@H](CC(=O)O)C(=O)N[C@H](C(=O)N[C@@H](Cc1c[nH]cn1)C(=O)N[C@@H](Cc1ccccc1)C(=O)N[C@@H](CCCNC(=N)N)C(=O)N[C@H](C(=O)N[C@@H](Cc1ccccc1)C(=O)N[C@@H](CCCNC(=N)N)C(=O)N[C@@H](CO)C(=O)N[C@@H](Cc1c[nH]cn1)C(=O)N[C@@H](CO)C(=O)N[C@@H](CC(=O)O)C(=O)N[C@@H](Cc1ccc(O)cc1)C(=O)N[C@@H](CCCNC(=N)N)C(=O)N[C@@H](CCCNC(=N)N)C(=O)N[C@H](C(=O)O)[C@@H](C)CC)[C@@H](C)O)[C@@H](C)O | – | C57BL/6J mouse, MCD diet | intraperitoneal, 0.6 nmol/g, 3 weeks, 3 times weekly | – | serum total cholesterol | 62.7 ± 11.1 mg/dL |
| COc1ccc(-c2nnc(COc3cc(-c4nc5ccccc5s4)ccc3OC)o2)cc1OC | hind limb tonic extension | albino mouse, MES-induced seizure | ip, 0.5 h | – | minimal effective dose | 30 mg/kg |

Excerpt of the above:
| Compound | assay | test system | setting | how to read | endpoint | result |
| --- | --- | --- | --- | --- | --- | --- |
| COc1ccc(OC)c(C(=Cc2ccc(O)c(OC)c2)C(=O)NCCc2ccc(O)cc2)c1 | item: DA, DOPAC, HVA | C57BL mice, MPTP/p Parkinson model, striatum | 75 mg/kg, 8 weeks | reference: MPTP/p vehicle | dopamine and metabolite level | increased |
| CC(C)(C)OC(=O)N1CCC[C@H](O)[C@H]1CC(=O)Cn1cnc2cc(Br)c(Cl)cc2c1=O (relative stereo) | luciferase translation | rabbit reticulocyte lysate | concentration not given | – | translation | inactive |
| CCCCCCCCCC(=O)N[C@@H](Cc1c[nH]c2ccccc12)C(=O)N[C@H](CC(N)=O)C(=O)N[C@@H](CC(=O)O)C(=O)N[C@@H]1C(=O)NCC(=O)N[C@@H](CCCN)C(=O)N[C@@H](CC(=O)O)C(=O)N[C@H](C)C(=O)N[C@@H](CC(=O)O)C(=O)NCC(=O)N[C@H](CO)C(=O)N[C@@H]([C@H](C)CC(=O)O)C(=O)N[C@@H](CC(=O)c2ccccc2N)C(=O)O[C@@H]1C | – | mammalian-mimic liposomes | 50 µg/mL, 100 min | – | calcein leakage | 5.2% |
